Experimental data collected from several papers.
“And” joins repeats or separate records; there may be more than shown. Numbers after ± are the reported error.
PLAU: Urokinase-type plasminogen activator (PLAU, Homo sapiens, UniProt P00749)
HDAC11: Histone deacetylase 11 (HDAC11, Homo sapiens, UniProt Q96DB2)
Chain of UniProt Q96DB2 (whole entry, looked up): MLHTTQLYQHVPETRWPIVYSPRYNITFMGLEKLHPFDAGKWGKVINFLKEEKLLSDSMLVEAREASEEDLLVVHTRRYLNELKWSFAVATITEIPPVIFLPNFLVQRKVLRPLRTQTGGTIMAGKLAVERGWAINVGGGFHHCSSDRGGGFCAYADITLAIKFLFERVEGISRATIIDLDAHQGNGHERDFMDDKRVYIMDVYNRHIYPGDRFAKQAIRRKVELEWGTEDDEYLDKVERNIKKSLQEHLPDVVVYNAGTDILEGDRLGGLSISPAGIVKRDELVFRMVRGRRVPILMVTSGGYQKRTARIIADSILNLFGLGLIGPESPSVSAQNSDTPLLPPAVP
DRD4: D(4) dopamine receptor (DRD4, Homo sapiens, UniProt P21917)
Chain of UniProt P21917 (whole entry, looked up): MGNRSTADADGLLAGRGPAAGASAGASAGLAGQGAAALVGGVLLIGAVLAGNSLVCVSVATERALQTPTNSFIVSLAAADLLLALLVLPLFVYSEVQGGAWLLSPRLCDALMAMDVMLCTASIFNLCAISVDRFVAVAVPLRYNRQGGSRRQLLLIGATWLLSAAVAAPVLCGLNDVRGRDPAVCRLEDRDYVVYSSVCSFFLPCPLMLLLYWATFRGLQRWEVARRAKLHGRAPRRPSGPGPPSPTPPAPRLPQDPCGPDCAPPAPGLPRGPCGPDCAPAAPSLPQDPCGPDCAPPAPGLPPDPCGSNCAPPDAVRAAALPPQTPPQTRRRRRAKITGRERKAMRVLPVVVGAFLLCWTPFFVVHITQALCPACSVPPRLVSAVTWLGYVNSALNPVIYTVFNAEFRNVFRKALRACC
Chain of UniProt P52790 (whole entry, unmodified, looked up): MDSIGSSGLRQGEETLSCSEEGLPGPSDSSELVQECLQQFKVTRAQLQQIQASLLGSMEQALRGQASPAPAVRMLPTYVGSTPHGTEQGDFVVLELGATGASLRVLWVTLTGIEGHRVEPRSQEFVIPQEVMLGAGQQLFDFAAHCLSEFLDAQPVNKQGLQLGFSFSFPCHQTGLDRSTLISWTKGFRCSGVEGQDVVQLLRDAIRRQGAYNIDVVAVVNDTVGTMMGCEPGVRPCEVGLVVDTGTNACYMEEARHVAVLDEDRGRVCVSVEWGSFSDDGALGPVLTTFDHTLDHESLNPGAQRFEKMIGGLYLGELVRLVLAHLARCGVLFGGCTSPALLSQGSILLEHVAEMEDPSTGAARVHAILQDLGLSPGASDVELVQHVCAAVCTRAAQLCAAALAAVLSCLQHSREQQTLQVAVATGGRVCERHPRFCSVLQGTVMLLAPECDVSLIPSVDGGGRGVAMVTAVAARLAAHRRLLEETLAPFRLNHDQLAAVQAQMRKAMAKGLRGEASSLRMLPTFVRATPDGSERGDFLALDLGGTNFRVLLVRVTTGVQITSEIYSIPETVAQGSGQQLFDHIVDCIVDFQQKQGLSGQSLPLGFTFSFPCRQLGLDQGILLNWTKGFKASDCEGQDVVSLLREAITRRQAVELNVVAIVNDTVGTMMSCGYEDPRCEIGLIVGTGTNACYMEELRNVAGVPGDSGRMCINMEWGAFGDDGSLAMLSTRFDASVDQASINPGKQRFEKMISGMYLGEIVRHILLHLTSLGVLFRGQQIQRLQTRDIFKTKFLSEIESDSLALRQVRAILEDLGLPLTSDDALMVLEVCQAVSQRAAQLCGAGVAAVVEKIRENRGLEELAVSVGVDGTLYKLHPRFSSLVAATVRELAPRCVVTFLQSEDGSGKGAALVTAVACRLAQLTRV
Chain of UniProt P41595 (whole entry, looked up): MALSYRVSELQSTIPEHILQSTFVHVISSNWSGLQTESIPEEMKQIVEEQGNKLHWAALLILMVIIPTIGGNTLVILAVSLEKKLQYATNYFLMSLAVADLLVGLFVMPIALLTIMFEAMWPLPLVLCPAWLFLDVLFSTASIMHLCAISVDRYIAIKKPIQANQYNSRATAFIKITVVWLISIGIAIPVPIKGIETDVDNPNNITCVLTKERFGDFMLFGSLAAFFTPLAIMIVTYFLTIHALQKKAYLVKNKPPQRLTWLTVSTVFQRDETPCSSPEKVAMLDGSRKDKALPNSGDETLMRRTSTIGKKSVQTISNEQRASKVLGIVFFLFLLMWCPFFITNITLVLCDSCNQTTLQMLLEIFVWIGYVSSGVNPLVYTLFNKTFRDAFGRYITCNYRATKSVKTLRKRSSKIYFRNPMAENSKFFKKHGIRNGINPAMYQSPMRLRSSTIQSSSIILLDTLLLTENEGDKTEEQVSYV
Chain of UniProt P30968 (whole entry, unmodified, looked up): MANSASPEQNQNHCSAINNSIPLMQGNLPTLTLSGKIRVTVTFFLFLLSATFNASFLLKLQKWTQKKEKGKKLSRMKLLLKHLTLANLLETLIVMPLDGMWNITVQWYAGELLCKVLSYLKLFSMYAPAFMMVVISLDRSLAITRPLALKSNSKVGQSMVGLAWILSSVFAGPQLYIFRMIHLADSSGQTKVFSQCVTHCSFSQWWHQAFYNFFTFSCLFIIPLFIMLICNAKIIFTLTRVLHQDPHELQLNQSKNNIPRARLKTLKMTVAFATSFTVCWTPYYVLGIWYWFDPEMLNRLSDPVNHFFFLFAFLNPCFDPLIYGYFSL
Chain of UniProt P22059 (whole entry, looked up): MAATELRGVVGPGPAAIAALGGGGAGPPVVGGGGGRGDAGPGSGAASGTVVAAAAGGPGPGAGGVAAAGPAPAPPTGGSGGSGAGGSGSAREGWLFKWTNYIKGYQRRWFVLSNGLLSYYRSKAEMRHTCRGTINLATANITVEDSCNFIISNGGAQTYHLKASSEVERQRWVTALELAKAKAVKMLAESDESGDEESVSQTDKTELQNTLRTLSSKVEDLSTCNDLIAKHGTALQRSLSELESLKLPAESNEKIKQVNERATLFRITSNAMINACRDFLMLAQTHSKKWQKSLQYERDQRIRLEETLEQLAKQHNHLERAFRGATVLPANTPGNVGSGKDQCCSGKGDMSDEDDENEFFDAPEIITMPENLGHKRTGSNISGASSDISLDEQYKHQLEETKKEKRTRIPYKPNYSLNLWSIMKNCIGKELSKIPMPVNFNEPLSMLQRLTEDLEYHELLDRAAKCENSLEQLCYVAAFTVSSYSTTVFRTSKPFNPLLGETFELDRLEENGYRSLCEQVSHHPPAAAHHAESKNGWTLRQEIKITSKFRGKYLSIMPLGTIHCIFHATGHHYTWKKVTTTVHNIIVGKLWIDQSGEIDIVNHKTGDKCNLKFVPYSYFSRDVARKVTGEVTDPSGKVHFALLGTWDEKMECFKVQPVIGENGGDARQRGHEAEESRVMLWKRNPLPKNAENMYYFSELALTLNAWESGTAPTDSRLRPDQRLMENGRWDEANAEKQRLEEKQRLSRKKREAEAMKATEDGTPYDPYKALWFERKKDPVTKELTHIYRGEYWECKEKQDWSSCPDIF
Chain of UniProt Q13946 (whole entry, looked up): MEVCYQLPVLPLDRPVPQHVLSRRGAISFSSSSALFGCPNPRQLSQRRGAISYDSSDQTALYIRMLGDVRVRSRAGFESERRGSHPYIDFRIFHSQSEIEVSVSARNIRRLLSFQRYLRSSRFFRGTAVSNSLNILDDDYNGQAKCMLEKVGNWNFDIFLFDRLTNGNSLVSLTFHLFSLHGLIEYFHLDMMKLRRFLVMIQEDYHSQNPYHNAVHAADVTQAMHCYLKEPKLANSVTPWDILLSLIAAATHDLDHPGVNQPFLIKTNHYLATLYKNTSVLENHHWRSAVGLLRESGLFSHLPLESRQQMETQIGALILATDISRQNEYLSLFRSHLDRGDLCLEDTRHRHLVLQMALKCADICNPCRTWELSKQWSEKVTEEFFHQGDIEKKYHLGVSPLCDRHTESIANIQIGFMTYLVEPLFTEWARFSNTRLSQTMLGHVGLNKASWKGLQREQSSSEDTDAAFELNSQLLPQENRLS
Chain of UniProt Q6VB83 (whole entry, looked up): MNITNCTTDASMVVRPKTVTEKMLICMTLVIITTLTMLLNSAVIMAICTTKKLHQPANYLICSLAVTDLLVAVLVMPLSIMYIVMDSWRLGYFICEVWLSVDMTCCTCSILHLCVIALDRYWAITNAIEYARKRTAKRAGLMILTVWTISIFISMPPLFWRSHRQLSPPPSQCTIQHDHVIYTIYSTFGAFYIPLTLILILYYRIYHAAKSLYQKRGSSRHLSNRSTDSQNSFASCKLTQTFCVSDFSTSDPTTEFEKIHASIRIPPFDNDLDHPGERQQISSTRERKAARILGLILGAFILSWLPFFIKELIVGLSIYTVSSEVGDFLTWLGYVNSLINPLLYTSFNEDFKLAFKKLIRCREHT
Chain of UniProt Q03181 (whole entry, looked up): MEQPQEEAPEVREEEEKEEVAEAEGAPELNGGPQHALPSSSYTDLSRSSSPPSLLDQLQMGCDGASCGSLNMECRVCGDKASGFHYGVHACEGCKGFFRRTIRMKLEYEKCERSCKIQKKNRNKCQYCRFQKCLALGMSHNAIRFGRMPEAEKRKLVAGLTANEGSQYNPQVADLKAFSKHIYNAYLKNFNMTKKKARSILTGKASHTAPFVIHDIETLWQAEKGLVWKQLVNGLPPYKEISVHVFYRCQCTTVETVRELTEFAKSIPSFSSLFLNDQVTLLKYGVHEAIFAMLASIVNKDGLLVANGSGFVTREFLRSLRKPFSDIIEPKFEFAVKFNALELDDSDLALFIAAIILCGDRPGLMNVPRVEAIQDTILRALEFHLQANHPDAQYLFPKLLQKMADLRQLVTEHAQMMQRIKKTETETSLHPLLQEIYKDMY

SMILES	target	test	system	setting	Ki
Nc1cc2ccccc2cn1	PLAU	inhibitor	–	pH 7.4	> 30 µM
CC[C@@H](CO)NC(=O)[C@@H]1C=C2c3cccc4c3c(cn4C)C[C@H]2N(C)C1	5-hydroxytryptamine receptor 1E (5HT1E, Cavia porcellus, UniProt Q6VB83)	binding, radioligand competition	AV12 cell membranes	pH 7.4, 37 °C, added: [3H]5-HT	0.0347 µM
OC[C@H]1N/C(=N\Cc2cccc(F)c2)[C@H](O)[C@@H](O)[C@H]1O	β-glucosidase sweet almond	enzyme activity, inhibitor	–	pH 5.00	0.124 ± 0.017 µM
Cc1cc(OS(=O)(=O)Oc2cccc(C(C)(C)C)c2)cc(C(=O)NO)c1	HDAC11	–	–	–	1.7 µM
C[C@H](CCC(=O)NCCS(=O)(=O)O)[C@H]1CC[C@H]2[C@@H]3[C@@H](O)C[C@@H]4C[C@H](O)CC[C@]4(C)[C@H]3CC[C@]12C	OSBP (Homo sapiens, UniProt P22059)	–	–	–	> 100 µM
Cc1c(OS(=O)(=O)Oc2ccc(Oc3ccccc3)cc2)cccc1C(=O)NO	HDAC11	–	–	–	0.149 µM
Cc1cccc(C/N=C2\N[C@H](CO)[C@H](O)[C@H](O)[C@H]2O)c1	β-glucosidase sweet almond	enzyme activity, inhibitor	–	pH 5.00	0.293 ± 0.096 µM
O=[N+]([O-])c1ccc2c(N=Nc3c(O)ccc4ccccc34)c(O)cc(S(=O)(=O)O)c2c1	Diphosphomevalonate decarboxylase (Staphylococcus epidermidis, UniProt Q9FD73)	inhibitor	–	pH 7, added: ATP (varied)	1.8 ± 0.1 µM
OC[C@H]1N/C(=N\C2CC2)[C@H](O)[C@@H](O)[C@H]1O	β-glucosidase sweet almond	enzyme activity, inhibitor	–	pH 5.00	0.0118 ± 0.0027 µM
COC/C=C/c1cc(C2CC2c2ccc3c(c2)C(C(C)C)N(C)CC3)cc2ccc(C(=N)N)cc12 (stereo not shown)	PLAU	inhibitor	–	pH 7.4	0.021 µM
OC[C@H]1N/C(=N\CC2CC2)[C@H](O)[C@@H](O)[C@H]1O	β-glucosidase sweet almond	enzyme activity, inhibitor	–	pH 5.00	0.0115 ± 0.0053 µM
COc1cccc(-c2c(C)n(Cc3c(F)cccc3C(F)(F)F)c(=O)n(C[C@H](NCCCC(=O)O)c3ccccc3)c2=O)c1F	GNRHR (Homo sapiens, UniProt P30968, del191-191)	–	–	–	0.00028 ± 0.00012 µM
Cc1cc(OS(=O)(=O)Oc2ccc(Oc3ccccc3)cc2)cc(C(=O)NO)c1	HDAC11	–	–	–	1.27 µM
CN(CC[C@@H]1C[C@H]1CNC(=O)c1cc2ccccc2[nH]1)[C@@H]1Cc2cccc3[nH]c(=O)n(c23)C1	DRD4	binding	–	–	1.32 ± 0.11 µM
COc1cc(C2CC2c2ccc3c(c2)C(C(C)C)N(C)CC3)cc2ccc(C(=N)N)cc12 (stereo not shown)	PLAU	inhibitor	–	pH 7.4	0.094 µM
CN(CCCCNC(=O)c1cc2ccccc2[nH]1)[C@@H]1Cc2cccc3[nH]c(=O)n(c23)C1	DRD4	binding	–	–	0.899 ± 0.154 µM
OC[C@H]1OC(O)[C@H](O)[C@@H](O)[C@@H]1O (stereo partly shown)	Hexokinase-3 (HK3, Homo sapiens, UniProt P52790, N221A)	substrate inhibition	–	mutant N221A, partial substrate inhibition model, added: ATP 20 mM	51000 ± 5000 µM
COC(=O)Nc1ccc2nc(C(=N)N)ccc2c1	PLAU	inhibitor	–	pH 7.4	> 50 µM
CC(C)C[C@H](NC(=O)[C@H](Cc1ccccc1)NC(=O)c1cnccn1)B(O)O	20S proteasome (Plasmodium falciparum, UniProt A0A5K1K7U1+Q8IJT1)	inhibitor, progress curve	–	Ki as apparent Ki/2	0.0031 µM

SMILES	target	test	system	setting	Ki
O=C(NO)c1cccc(OS(=O)(=O)Oc2ccc3ccccc3c2)c1	HDAC11	–	–	–	0.825 µM
C[C@@H]1Cc2ccccc2N1C(=O)NCCCCN(C)[C@@H]1Cc2cccc3[nH]c(=O)n(c23)C1	DRD4	binding	–	–	0.044 ± 0.00595 µM
Nc1ncnc2c1ncn2[C@@H]1O[C@H](C[C@@H](N)CC[C@H](N)C(=O)O)[C@@H](O)[C@H]1O	KMT2C (Homo sapiens, UniProt Q8NEZ4)	methyltransferase activity, competitive inhibitor, enzyme-coupled methylation	–	added: varied S-adenosylmethionine	5.74 µM
COC(=O)Nc1cc(C(=O)Nc2ccccc2)cc2ccc(C(=N)N)cc12	PLAU	inhibitor	–	pH 7.4	0.018 µM
Cc1c(C)n(Cc2ccc(-c3ccccc3C(=O)O)cc2)c2ccc(C(=O)N[C@@H](C)c3ccc([N+](=O)[O-])cc3)cc12	PPARD (Homo sapiens, UniProt Q03181)	–	–	–	10.5 µM
CCCCCCC/N=C1\N[C@H](CO)[C@H](O)[C@H](O)[C@H]1O	β-glucosidase sweet almond	enzyme activity, inhibitor	–	pH 5.00	0.0296 ± 0.0061 µM
CC(C)C1=NCCc2ccc(NC(=O)c3cc(Br)c4cc(C(=N)N)ccc4c3)cc21	PLAU	inhibitor	–	pH 7.4	0.0157 µM
Cc1cc(C(C)(C)C)ccc1OS(=O)(=O)Oc1cccc(C(=O)NO)c1C	HDAC11	–	–	–	0.542 µM
CNC(=O)[C@@]12C[C@@H]1[C@@H](n1cnc3c(NC)nc(C#C[c-]4cccc4)nc31)[C@H](O)[C@@H]2O.[Fe+2].c1cc[cH-]c1	HTR2B (Homo sapiens, UniProt P41595)	radioligand binding (PDSP)	–	–	0.318 µM
Cc1c(OS(=O)(=O)Oc2ccc(Br)cc2)cccc1C(=O)NO	HDAC11	–	–	–	0.457 µM
Cc1ccc([C@H]2C[C@@H]2COc2cc(NCc3nnc(C)s3)nc(C)n2)nc1	PDE7A (Homo sapiens, UniProt Q13946)	enzyme activity, inhibitor, IMAP fluorescence polarization	–	added: cAMP substrate	> 75 µM
OC[C@H]1N/C(=N\Cc2ccccc2F)[C@H](O)[C@@H](O)[C@H]1O	β-glucosidase sweet almond	enzyme activity, inhibitor	–	pH 5.00	0.118 ± 0.027 µM
O=C(NO)c1cccc(OS(=O)(=O)Oc2ccc(-c3cccc(C(F)(F)F)c3)cc2)c1	HDAC11	–	–	–	1.42 µM
CN1CCc2ccc(C3CC3c3ccc4cc(C(=N)N)ccc4c3)cc2C1C1CCC1 (stereo not shown)	PLAU	inhibitor	–	pH 7.4	0.042 µM
CCC/N=C1\N[C@H](CO)[C@H](O)[C@H](O)[C@H]1O	β-glucosidase sweet almond	enzyme activity, inhibitor	–	pH 5.00	0.0187 µM and 0.0147 µM
Cc1cc(C(C)(C)C)ccc1OS(=O)(=O)Oc1cccc(C(=O)NO)c1	HDAC11	–	–	–	0.861 µM
N=C(N)c1ccc2cc(C(=O)Nc3ccc4c(c3)C(C3CCCCC3)=NCC4)ccc2c1	PLAU	inhibitor	–	pH 7.4	0.0663 µM
OC[C@H]1N/C(=N\Cc2ccc(F)cc2)[C@H](O)[C@@H](O)[C@H]1O	β-glucosidase sweet almond	enzyme activity, inhibitor	–	pH 5.00	0.0575 ± 0.0065 µM

A few entries again:
SMILES	target	test	system	setting	Ki
CCCCCCC/N=C1\N[C@H](CO)[C@H](O)[C@H](O)[C@H]1O	β-glucosidase sweet almond	enzyme activity, inhibitor	–	pH 5.00	0.0296 ± 0.0061 µM
CC(C)C1=NCCc2ccc(NC(=O)c3cc(Br)c4cc(C(=N)N)ccc4c3)cc21	PLAU	inhibitor	–	pH 7.4	0.0157 µM
Cc1cc(C(C)(C)C)ccc1OS(=O)(=O)Oc1cccc(C(=O)NO)c1C	HDAC11	–	–	–	0.542 µM
CNC(=O)[C@@]12C[C@@H]1[C@@H](n1cnc3c(NC)nc(C#C[c-]4cccc4)nc31)[C@H](O)[C@@H]2O.[Fe+2].c1cc[cH-]c1	HTR2B (Homo sapiens, UniProt P41595)	radioligand binding (PDSP)	–	–	0.318 µM
Cc1c(OS(=O)(=O)Oc2ccc(Br)cc2)cccc1C(=O)NO	HDAC11	–	–	–	0.457 µM
Cc1ccc([C@H]2C[C@@H]2COc2cc(NCc3nnc(C)s3)nc(C)n2)nc1	PDE7A (Homo sapiens, UniProt Q13946)	enzyme activity, inhibitor, IMAP fluorescence polarization	–	added: cAMP substrate	> 75 µM
